# Measurements pooled from the literature.
# Each line is one published result; not all experiments were run side by side. “And” joins repeats or separate records; there may be more than shown. ± gives the spread as reported. Non-standard residues stand in square brackets, D forms with d. Where no end group is shown, it is not given here. Ends that are not written are not given here. No end group written: not given here. [ ]: non-standard residue; d: D form. *: point of attachment.
# IKBKG 2-419 C11A/C76A/C95A/C131A/C167A: IKBKG 2-419 C11A/C76A/C95A/C131A/C167A (Homo sapiens, UniProt Q9Y6K9)
# Chain of UniProt Q9Y6K9 (whole entry, unmodified, looked up): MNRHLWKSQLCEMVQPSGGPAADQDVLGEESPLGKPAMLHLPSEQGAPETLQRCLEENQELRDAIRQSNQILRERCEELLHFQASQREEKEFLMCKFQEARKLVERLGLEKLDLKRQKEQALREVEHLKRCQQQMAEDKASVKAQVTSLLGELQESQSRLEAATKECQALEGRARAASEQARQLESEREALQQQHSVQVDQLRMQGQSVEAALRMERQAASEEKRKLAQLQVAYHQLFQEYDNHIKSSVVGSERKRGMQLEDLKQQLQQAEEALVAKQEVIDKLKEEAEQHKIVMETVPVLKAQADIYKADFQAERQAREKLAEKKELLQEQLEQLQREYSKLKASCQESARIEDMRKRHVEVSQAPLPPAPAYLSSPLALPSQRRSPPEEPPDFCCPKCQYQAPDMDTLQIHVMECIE
# T1: NR1I2/RXRA (Homo sapiens); chain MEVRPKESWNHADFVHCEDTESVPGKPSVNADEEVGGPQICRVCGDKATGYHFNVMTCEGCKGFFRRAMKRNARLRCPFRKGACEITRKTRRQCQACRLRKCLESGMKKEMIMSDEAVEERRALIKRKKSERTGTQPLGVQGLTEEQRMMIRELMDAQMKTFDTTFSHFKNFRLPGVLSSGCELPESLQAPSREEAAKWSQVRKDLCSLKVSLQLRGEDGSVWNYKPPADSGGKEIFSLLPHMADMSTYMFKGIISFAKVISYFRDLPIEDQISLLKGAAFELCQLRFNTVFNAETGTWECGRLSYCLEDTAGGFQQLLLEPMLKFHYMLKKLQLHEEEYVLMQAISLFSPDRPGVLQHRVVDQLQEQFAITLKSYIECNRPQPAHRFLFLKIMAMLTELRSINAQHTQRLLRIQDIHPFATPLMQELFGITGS; chain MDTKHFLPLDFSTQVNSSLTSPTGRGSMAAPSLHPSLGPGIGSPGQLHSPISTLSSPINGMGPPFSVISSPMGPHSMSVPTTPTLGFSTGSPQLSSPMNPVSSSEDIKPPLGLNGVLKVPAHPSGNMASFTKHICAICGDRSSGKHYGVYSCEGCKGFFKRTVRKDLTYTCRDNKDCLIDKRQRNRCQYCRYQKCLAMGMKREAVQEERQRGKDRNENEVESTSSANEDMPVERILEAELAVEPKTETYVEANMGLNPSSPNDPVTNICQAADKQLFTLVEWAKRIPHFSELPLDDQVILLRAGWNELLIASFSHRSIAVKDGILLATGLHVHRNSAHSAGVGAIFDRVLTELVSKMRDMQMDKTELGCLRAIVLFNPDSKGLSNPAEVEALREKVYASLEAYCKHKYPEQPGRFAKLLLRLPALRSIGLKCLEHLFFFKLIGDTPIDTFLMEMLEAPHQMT
# B1: CPT1A 381-469 (Rattus norvegicus, UniProt P32198); Cy3 label; sequence looked up; chain AALTAADRVPWAKCRQTYFARGKNKQSLDAVEKAAFFVTLDESEQGYREEDPEASIDSYAKSLLHGRCFDRWFDKSITFVVFKNSKIGI
# B2: IGFL1 24-110 (Homo sapiens, UniProt Q6UW32); chain GAPVAPMTPYLMLCQPHKRCGDKFYDPLQHCCYDDAVVPLARTQTCGNCTFRVCFEQCCPWTFMVKLINQNCDSARTSDDRLCRSVS
# B3: UGT1A9 (Homo sapiens, UniProt O60656); chain GKLLVVPMDGSHWFTMRSVVEKLILRGHEVVVVMPEVSWQLGRSLNCTVKTYSTSYTLEDLDREFKAFAHAQWKAQVRSIYSLLMGSYNDIFDLFFSNCRSLFKDKKLVEYLKESSFDAVFLDPFDNCGLIVAKYFSLPSVVFARGILCHYLEEGAQCPAPLSYVPRILLGFSDAMTFKERVRNHIMHLEEHLLCHRFFKNALEIASEILQTPVTEYDLYSHTSIWLLRTDFVLDYPKPVMPNMIFIGGINCHQGKPLPMEFEAYINASGEHGIVVFSLGSMVSEIPEKKAMAIADALGKIPQTVLWRYTGTRPSNLANNTILVKWLPQNDLLGHPMTRAFITHAGSHGVYESICNGVPMVMMPLFGDQMDNAKRMETKGAGVTLNVLEMTSEDLENALKAVINDKSYKENIMRLSSLHKDRPVEPLDLAVFWVEFVMRHKGAPHLRPAAHDLTWYQYHSLDVIGFLLAVVLTVAFITFKCCAYGYRKCLGKKGRVKKAHKSKTH
# B4: LPHN3 N-terminal half, OLF-RBL (Mus musculus); chain GKHNERHPALAAPLRHAERSPGGALPPRHLLQQPAAERSTAHRGQGPRGAARGVRGPGAPGAQIAAQAFSRAPIPMAVVRRELSCESYPIELRCPGTDVIMIESANYGRTDDKICDSDPAQMENIRCYLPDAYKIMSQRCNNRTQCAVVAGPDVFPDPCPGTYKYLEVQYECVPYKVEQKVFLCPGLLKGVYQSEHLFESDHQSGAWCKDPLQASDKIYYMPWTPYRTDTLTEYSSKDDFIAGRPTTTYKLPHRVDGTGFVVYDGALFFNKERTRNIVKFDLRTRIKSGEAIIANANYHDTSPYRWGGKSDIDLAVDENGLWVIYATEQNNGKIVISQLNPYTLRIEGTWDTAYDKRSASNAFMICGILYVVKSVYEDDDNEATGNKIDYIYNTDQSKDSLVDVPFPNSYQYIAAVDYNPRDNLLYVWNNYHVVKYSLDFGPLDSRSGPVHHGQVSYISPPIHLDSELERPPVRGISTTGSLGMGSTTTSTTLRTTTWNIGRSTTASLPGRRNRSTSTPSPAVEVL
# Chain of UniProt P55899 (whole entry, looked up): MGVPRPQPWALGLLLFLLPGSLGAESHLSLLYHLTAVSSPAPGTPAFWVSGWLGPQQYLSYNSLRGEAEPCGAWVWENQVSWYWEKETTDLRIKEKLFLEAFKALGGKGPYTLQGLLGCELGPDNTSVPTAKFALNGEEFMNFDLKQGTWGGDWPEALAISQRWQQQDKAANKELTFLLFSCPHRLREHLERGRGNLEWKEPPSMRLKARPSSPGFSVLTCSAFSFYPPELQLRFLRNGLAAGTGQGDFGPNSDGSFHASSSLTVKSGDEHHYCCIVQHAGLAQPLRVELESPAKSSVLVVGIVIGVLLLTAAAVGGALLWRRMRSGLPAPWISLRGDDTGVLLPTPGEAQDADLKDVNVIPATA
# Chain of UniProt Q9H665 (whole entry, looked up): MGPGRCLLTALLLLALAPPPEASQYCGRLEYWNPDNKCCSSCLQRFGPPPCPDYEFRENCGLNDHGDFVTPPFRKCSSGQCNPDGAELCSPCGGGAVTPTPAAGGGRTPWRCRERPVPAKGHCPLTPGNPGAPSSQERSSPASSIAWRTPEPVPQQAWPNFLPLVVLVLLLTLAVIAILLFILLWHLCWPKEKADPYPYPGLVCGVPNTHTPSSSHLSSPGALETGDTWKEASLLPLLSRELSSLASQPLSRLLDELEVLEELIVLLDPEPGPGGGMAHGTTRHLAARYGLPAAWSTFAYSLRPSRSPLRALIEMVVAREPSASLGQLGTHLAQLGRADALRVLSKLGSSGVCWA
# Chain of UniProt Q71SY5 (whole entry, looked up): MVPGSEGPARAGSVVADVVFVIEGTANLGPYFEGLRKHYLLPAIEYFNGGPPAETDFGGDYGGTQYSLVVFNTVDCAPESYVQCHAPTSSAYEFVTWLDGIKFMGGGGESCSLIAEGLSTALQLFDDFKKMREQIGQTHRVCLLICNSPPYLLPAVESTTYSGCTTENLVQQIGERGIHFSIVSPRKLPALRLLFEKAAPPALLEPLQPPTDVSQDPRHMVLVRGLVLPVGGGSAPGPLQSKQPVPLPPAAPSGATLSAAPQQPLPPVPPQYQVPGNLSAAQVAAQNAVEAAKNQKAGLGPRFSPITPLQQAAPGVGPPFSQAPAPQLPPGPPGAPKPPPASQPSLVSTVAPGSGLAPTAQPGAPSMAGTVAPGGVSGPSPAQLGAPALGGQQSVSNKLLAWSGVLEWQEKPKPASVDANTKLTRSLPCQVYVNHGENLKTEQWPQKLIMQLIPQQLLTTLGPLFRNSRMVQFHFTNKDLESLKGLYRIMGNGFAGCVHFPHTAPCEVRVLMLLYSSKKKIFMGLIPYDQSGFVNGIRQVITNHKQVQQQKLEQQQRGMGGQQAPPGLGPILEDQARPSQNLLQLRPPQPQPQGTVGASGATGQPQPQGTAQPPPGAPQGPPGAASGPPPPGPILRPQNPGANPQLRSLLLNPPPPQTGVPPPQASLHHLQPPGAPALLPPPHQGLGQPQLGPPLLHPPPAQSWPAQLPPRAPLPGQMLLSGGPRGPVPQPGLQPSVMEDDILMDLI
# Chain of UniProt Q8WR51 (whole entry, unmodified, looked up): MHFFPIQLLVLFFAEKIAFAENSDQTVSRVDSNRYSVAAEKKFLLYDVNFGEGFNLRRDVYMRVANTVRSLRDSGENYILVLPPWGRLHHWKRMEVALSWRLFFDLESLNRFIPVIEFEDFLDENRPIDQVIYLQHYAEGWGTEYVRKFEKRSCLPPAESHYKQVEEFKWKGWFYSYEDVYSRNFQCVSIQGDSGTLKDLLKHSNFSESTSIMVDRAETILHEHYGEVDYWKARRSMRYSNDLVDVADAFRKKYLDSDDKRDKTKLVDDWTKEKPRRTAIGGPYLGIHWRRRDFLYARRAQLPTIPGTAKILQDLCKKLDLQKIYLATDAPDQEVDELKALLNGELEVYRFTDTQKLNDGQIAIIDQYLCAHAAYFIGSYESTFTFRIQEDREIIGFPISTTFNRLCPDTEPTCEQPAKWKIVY
# Chain of UniProt O75164 (whole entry, looked up): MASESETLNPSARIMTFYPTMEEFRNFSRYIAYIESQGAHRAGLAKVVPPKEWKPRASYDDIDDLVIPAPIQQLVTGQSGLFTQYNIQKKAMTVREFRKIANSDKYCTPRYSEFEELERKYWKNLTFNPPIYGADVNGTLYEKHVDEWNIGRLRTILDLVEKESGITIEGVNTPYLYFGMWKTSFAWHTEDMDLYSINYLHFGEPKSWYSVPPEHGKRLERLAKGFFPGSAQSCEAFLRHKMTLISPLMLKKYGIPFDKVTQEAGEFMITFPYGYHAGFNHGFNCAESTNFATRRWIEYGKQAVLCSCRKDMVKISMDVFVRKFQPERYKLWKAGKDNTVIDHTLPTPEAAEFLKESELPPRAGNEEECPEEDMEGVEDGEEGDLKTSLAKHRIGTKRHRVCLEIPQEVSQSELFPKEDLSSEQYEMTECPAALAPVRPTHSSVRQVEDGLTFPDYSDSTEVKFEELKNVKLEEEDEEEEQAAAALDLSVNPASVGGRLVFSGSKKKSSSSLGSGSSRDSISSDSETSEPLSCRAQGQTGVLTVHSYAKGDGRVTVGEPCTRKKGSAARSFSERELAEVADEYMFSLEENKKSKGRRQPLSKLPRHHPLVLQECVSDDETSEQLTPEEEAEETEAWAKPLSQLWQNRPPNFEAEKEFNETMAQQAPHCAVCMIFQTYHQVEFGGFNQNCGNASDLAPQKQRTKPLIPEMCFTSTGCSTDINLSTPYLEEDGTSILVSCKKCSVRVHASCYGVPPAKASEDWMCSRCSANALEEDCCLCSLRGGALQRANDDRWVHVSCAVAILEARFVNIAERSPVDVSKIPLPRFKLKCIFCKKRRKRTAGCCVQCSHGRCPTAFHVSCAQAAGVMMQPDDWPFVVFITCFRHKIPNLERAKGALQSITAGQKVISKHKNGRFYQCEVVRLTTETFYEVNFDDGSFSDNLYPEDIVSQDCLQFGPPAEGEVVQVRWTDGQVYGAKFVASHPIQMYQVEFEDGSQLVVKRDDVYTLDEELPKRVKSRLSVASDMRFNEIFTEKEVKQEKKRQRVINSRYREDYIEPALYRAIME
# Chain of UniProt P12710 (whole entry, looked up): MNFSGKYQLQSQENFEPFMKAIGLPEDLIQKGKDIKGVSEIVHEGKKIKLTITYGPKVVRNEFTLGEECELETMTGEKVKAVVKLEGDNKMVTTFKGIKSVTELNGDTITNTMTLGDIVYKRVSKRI
# Chain of UniProt Q8BGT1 (whole entry, looked up): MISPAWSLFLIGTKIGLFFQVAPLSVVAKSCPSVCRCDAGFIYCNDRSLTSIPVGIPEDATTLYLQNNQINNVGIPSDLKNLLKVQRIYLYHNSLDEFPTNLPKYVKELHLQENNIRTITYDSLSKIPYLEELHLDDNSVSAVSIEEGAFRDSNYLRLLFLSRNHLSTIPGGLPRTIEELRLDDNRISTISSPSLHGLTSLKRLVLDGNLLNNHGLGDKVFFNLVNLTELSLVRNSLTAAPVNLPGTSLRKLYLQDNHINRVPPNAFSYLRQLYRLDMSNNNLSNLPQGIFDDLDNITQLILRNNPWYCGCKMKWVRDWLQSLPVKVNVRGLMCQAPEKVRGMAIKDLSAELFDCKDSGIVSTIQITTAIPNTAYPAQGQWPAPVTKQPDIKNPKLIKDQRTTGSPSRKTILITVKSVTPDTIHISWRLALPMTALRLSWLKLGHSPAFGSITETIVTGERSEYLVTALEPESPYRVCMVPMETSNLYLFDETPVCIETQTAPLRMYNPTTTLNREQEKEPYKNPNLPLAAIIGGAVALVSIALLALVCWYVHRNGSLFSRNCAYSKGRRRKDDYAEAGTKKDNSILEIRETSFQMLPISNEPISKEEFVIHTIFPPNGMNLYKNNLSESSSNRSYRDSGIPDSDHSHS
# Chain of UniProt Q99767 (whole entry, unmodified, looked up): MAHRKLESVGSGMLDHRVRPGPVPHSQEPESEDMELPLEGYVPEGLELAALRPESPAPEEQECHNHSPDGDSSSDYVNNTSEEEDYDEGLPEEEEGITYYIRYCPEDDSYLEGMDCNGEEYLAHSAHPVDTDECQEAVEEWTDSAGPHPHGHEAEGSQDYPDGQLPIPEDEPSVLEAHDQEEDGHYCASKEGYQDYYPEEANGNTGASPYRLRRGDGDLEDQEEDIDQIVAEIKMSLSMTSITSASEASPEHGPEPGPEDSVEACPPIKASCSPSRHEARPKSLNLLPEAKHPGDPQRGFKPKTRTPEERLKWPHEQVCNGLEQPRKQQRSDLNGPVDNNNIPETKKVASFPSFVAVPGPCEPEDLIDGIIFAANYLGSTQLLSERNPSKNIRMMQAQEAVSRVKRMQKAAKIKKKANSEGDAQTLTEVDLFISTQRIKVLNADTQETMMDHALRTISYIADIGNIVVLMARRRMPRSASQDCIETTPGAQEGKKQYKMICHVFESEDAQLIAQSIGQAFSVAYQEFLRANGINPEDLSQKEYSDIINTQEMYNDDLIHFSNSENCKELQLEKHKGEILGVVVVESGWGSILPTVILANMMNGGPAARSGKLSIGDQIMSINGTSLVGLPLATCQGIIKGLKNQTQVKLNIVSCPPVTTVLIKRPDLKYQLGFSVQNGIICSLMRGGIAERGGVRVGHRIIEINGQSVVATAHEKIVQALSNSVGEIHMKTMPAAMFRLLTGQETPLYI
Substance,target or system,test,system,conditions,scale,measurement,value
"GGVK(Me3)KPLR-NH2 (H3 peptide residues 33-40 H39L; K36me3, C-terminal amide; Me3 = trimethyl (on lysine, Kme3))","PHF1 25-87 (Homo sapiens, UniProt O43189-1)",ITC,peptide,"pH 7.5, 25 °C, NaCl 150 mM",,Kd,18700 nM
cdc12 fragment I1063A (Schizosaccharomyces pombe) (sequence not shown),ACTA1 filaments (UniProt P68135),pyrene-actin assay,,"barbed ends, rate followed not shown, with: Mg-ATP-actin",,Kd,10.6 nM
"AATKQTARKSTGGKAPRK (Histone H3.1 2-19 R2A (Homo sapiens, UniProt P68431); sequence looked up)","KDM5A 291-347 (Homo sapiens, UniProt P29375)",fluorescence polarisation,peptide,,,Kd,49000 nM
"GSLPPLDSEDLFQDLSHFQETWLAEAQVPDSDEQFVPDFHSE (ETV4 43-84 (Homo sapiens, UniProt P43268); sequence looked up)","MED25 ACID 391-553 (Homo sapiens, UniProt Q71SY5)",BLI,,,,Kd,700 nM
"PAKKSEELVAEAHNLSTLLENAIQDTAREQDQSFTALDWSWLQTE (IKBKB 701-745 C716S/V727A (Homo sapiens, UniProt O14920); sequence looked up)",IKBKG 2-419 C11A/C76A/C95A/C131A/C167A,"competition with labelled peptide, fluorescence polarisation",,pH 7.4,,Kd,8.7 nM
"tocilizumab IgG1, C-terminal lysine removed","FCGRT (Homo sapiens, UniProt P55899)","BLI, SPR",,,,Kd,25.8 nM and 25.9 nM and 25 nM and 26.4 nM and 28.6 nM and 14.6 nM
TCAGCTGAATGAACTTGCTGACCCTCTGCTTTC (dsDNA),"T1, NR1I2/RXRA (Homo sapiens)",fluorescence anisotropy competition,"double-stranded DNA, one strand shown",with: DR3 FAM,,Ki,86.5 ± 4.5 nM
ART[Lys(Me3)]QTARKSTG (histone H3 peptide; K4me3; Lys(Me3) = C[N+](C)(C)CCCC[C@H](N)C(=O)O),"KDM4A 895-1011 (Homo sapiens, UniProt O75164)",ITC,peptide,,,Kd,1100 nM
VV[Nle]A (Nle3; Nle = CCCC[C@H](N)C(=O)O),PC-12,"protection from Aβ1–42 toxicity, MTT",,"concentration not given, 6 h, Aβ to peptide ratio 1:10, with: Aβ1–42 2 µM",reference: untreated cells,cell viability,70%
"PAKKSEELVAEAHNLSTLLENAIQDTVREQDQSFAALDWSWLQTE (IKBKB 701-745 C716S/T735A (Homo sapiens, UniProt O14920); sequence looked up)",IKBKG 2-419 C11A/C76A/C95A/C131A/C167A,"competition with labelled peptide, fluorescence polarisation",,pH 7.4,,Kd,13 nM
ARTK(Me3)QTARKSTGGKAY (histone H3 2-16 (UniProt P68431); not fully specified; K4me3; Me3 = Me3: trimethyl-lysine (trimethylated lysine)),"KMT2A 1564-1628 V1617A (Homo sapiens, UniProt Q03164)",ITC,peptide,"pH 7.2, 25 °C, NaCl 50 mM",,Kd,52400 nM
B1 (CPT1A 381-469),"Fabp1, Cy5 label (Mus musculus, UniProt P12710)",FRET,,24 °C,,Kd,2.5 nM
THBS1 fragment (Homo sapiens),"pad-2 40-424 R298K/R299K (Caenorhabditis elegans, UniProt Q8WR51)",ITC,,25 °C,,Kd,950 nM
"MR1/B2M empty, chimera (Homo sapiens/Bos taurus)",TAPBPL luminal domain C94S (Homo sapiens),SPR,,"pH 7.2, 25 °C, NaCl 50 mM",,Kd,95900 nM
{TAMRA}-NNGQNGYENPTYKFFEQMQN (APP peptide residues 754-770 (Homo sapiens); N-terminal TAMRA),"APBA2 364-570 Y459A/F520A (Homo sapiens, UniProt Q99767)",fluorescence polarisation,peptide,with: TAMRA-labelled APP peptide 50 nM,,Kd,895000 ± 43000 nM
[dI]VIA (D-Ile1),PC-12,"protection from Aβ1–42 toxicity, MTT",,"concentration not given, 6 h, Aβ to peptide ratio 1:5, with: Aβ1–42 2 µM",reference: untreated cells,cell viability,70%
B2 (IGFL1 24-110),"IGFLR1 23-159 (Homo sapiens, UniProt Q9H665)",SPR,,"pH 7.4, 25 °C, NaCl 0.15 M",,Kd,1.2 nM
B3 (UGT1A9),O=c1cc(-c2ccc(O)c(O)c2)oc2cc(O)cc(O)c12,steady-state kinetics,,"pH 7.4, 37 °C",,Vmax,0.0007 µmol/min/mg
{FITC}-PAKKSEELVAEAHNLSTLLENAIQDTVREQDQSFTALDWSWLQTE (IKKβ 701-745 C716S (UniProt O14920); FITC label; FITC = O=C1OC2(c3ccc(O)cc3Oc3cc(O)ccc32)c2ccc(NC(=S)*)cc21; sequence looked up),"IKBKG C11A/C54A/C76A/C95A/C131A/C167A/C347A (Homo sapiens, UniProt Q9Y6K9)",fluorescence polarisation,peptide,pre-treatment not stated,,Kd,52 nM
"PAKKSEELVAEAHNLSTLLENAIQDTVRAQDQSFTALDWSWLQTE (IKBKB 701-745 C716S/E729A (Homo sapiens, UniProt O14920); sequence looked up)",IKBKG 2-419 C11A/C76A/C95A/C131A/C167A,"competition with labelled peptide, fluorescence polarisation",,pH 7.4,,Kd,4.9 nM
epidermal growth factor,MDCK monolayer,,,"120 min, pH 7.4, 1% BSA",reference: added tracer,basal-to-apical transport,3.2%
"B4 (LPHN3 N-terminal half, OLF-RBL)","FLRT3 LRR domain 29-386, N-linked glycosylation (Mus musculus, UniProt Q8BGT1)",ITC,,"pH 7.0, 25 °C, NaCl 150 mM",,Kd,34.2 ± 7.5 nM

# For quick reference, copied from above:
Substance,target or system,test,system,conditions,scale,measurement,value
B1 (CPT1A 381-469),"Fabp1, Cy5 label (Mus musculus, UniProt P12710)",FRET,,24 °C,,Kd,2.5 nM
THBS1 fragment (Homo sapiens),"pad-2 40-424 R298K/R299K (Caenorhabditis elegans, UniProt Q8WR51)",ITC,,25 °C,,Kd,950 nM
